# Published values of several laboratories.
# Every numbered part comes from another study and shows a few of its results, in no order. Changes are numbered by the printed parent chain.

# Study 1 — technique: DHFR PCA, deep sequencing; matrix: yeast; added: (+)-ABA 1.4 µM; reference: wild-type fitted maximum; reading: higher = stronger binding
# Target: ABI1, truncated, D143A, DHFR fusion (Arabidopsis thaliana)
# Notes: methotrexate growth selection, single substitutions
# Starting sequence: PYL1, truncated, DHFR fusion (Arabidopsis thaliana); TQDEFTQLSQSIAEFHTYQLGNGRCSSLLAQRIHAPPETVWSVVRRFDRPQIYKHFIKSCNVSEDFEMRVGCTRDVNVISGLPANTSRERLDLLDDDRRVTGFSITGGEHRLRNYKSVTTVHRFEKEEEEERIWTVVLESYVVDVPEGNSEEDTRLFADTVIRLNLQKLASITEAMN; partner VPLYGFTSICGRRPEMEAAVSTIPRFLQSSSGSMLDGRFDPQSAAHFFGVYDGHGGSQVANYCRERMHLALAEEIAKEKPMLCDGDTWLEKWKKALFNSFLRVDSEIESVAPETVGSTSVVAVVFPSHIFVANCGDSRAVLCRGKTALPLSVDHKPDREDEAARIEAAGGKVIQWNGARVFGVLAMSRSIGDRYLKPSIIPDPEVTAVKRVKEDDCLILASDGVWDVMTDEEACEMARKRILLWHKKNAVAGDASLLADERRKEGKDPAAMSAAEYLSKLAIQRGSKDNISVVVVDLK
Change,relative binding score [%]
A175H,46.7
T119A,-2.43
E130Y,39.9
I79W,40.8
S140R,20
K54S,-1.42
L93H,26.6
C25W,-7.62
Y115W,-5.28
S171K,65
A175M,41.8
G81W,6.42
N177C,69.4
R155W,-5.27

# Study 2 — target: MAFK, bZIP domain (human); technique: DHFR protein complementation; matrix: yeast; reference: wild-type JUN-FOS pair; reading: higher = stronger binding
# Notes: single substitutions, most at no-binding floor
# Starting sequence: JUN, bZIP domain (human); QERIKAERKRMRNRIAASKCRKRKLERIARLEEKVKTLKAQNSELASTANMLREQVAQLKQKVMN; partner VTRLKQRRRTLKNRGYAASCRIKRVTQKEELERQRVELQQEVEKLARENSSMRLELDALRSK
Change,binding fitness [natural log]
L31P,-1.47
A46Q,-1.39
A49G,-1.44
A57V,-1.5
A57K,-1.42
E54S,-1.43
E54Q,-1.41
K36L,-1.5
K34R,-1.45
Q41G,-1.48
Q41E,-1.39
K39R,-1.47

# Study 3 — technique: universal PBM; molecule type: double-stranded DNA, one strand shown; matrix: in vitro; tested at: not given; reading: higher = stronger binding
# Target: Sal-like protein 4, full length isoform B (SALL4, Homo sapiens, UniProt Q9UJQ4-2, residues 1-616)
# Notes: 8-mer, flanks averaged, mean of replicates
Strand,E-score
CCTTATAA,0.24
ACGTCACG,0.0226
CTGTCGTC,-0.118
GACCGCGA,-0.257
ACCGAGAA,-0.0237
ACGAACAC,-0.0269
ATAGTTGC,0.238
CTGGTGGA,-0.199
GACACAGC,-0.0591
CCTTGAGA,0.0302
ACCTAATA,0.284
AACCAATG,0.138
GCAGGAGC,-0.163

# Mixed results
Substance,target,test,system,setting,scale,endpoint,result
"PhoQ, residues 284 288 289 292 302 303 TSTLRA","PhoP, residues 12 14 15 18 19 NQGLL (Escherichia coli, UniProt P23836)","Sort-seq, refers to: YFP reporter",E. coli,"PhoQ-PhoP variant library, added: 10 µM Mg2+","reference: high Mg2+ state, higher = stronger signaling",fold induction,3.74

# Some of these lines once more (study 1):
Change,relative binding score [%]
C25W,-7.62
Y115W,-5.28
S171K,65
A175M,41.8
G81W,6.42
N177C,69.4
